Measured values collected from several papers.
Each line is one published result; not all experiments were run side by side. Numbers after ± are the reported error.
HTR2A: 5-hydroxytryptamine receptor 2A (HTR2A, Homo sapiens, UniProt P28223)
Chain of UniProt P28223 (whole entry, looked up): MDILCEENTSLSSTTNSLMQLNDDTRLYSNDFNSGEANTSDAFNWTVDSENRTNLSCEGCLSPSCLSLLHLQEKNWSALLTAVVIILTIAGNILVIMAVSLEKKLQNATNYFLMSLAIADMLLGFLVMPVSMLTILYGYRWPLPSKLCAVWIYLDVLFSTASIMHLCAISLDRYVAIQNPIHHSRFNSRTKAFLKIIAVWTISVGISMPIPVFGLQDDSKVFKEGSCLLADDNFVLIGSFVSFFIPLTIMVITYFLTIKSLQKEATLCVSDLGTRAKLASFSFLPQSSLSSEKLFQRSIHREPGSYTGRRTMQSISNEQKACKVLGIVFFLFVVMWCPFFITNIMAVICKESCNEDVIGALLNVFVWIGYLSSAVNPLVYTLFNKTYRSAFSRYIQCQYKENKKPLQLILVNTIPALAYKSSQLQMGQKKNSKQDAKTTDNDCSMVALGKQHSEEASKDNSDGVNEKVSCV
Chain of UniProt P22307 (whole entry, looked up): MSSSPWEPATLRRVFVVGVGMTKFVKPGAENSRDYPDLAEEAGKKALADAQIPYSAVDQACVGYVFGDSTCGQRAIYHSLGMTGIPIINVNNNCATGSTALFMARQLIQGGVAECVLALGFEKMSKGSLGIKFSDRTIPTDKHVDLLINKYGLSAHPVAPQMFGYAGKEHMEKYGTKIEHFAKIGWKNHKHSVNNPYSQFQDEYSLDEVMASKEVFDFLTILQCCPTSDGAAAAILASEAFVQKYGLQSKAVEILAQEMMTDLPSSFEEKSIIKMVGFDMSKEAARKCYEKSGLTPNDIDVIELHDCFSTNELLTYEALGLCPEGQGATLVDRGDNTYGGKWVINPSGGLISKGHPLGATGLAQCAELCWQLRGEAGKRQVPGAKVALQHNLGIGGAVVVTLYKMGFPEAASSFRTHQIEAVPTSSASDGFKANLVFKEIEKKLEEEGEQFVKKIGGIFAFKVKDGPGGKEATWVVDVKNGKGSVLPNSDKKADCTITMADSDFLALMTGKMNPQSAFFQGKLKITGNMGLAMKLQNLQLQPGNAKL
Chain of UniProt P10275 (whole entry, looked up): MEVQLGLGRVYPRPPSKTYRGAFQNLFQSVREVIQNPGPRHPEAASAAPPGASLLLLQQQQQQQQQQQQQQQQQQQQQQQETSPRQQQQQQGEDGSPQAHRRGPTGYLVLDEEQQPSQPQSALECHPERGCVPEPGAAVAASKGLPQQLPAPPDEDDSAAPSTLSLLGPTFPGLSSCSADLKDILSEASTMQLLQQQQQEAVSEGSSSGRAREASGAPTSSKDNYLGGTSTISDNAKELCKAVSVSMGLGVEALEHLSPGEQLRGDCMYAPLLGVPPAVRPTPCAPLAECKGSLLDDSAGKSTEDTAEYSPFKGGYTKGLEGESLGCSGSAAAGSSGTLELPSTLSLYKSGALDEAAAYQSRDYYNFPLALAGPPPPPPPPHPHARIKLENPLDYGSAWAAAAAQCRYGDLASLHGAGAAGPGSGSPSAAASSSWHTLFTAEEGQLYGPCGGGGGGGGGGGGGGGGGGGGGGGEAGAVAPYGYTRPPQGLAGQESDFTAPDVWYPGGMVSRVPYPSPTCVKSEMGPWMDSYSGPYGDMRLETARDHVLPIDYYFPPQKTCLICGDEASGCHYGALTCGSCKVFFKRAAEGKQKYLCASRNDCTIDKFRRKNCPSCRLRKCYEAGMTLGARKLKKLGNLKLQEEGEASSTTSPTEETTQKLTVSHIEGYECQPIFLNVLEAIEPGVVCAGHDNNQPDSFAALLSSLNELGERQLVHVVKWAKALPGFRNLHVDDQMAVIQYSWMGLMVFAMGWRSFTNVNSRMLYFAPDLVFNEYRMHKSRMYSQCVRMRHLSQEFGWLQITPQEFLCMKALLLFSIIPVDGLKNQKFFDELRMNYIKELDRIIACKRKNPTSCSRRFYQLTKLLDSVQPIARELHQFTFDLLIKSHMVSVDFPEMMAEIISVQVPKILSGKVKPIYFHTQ
Chain of UniProt P31424 (whole entry, looked up): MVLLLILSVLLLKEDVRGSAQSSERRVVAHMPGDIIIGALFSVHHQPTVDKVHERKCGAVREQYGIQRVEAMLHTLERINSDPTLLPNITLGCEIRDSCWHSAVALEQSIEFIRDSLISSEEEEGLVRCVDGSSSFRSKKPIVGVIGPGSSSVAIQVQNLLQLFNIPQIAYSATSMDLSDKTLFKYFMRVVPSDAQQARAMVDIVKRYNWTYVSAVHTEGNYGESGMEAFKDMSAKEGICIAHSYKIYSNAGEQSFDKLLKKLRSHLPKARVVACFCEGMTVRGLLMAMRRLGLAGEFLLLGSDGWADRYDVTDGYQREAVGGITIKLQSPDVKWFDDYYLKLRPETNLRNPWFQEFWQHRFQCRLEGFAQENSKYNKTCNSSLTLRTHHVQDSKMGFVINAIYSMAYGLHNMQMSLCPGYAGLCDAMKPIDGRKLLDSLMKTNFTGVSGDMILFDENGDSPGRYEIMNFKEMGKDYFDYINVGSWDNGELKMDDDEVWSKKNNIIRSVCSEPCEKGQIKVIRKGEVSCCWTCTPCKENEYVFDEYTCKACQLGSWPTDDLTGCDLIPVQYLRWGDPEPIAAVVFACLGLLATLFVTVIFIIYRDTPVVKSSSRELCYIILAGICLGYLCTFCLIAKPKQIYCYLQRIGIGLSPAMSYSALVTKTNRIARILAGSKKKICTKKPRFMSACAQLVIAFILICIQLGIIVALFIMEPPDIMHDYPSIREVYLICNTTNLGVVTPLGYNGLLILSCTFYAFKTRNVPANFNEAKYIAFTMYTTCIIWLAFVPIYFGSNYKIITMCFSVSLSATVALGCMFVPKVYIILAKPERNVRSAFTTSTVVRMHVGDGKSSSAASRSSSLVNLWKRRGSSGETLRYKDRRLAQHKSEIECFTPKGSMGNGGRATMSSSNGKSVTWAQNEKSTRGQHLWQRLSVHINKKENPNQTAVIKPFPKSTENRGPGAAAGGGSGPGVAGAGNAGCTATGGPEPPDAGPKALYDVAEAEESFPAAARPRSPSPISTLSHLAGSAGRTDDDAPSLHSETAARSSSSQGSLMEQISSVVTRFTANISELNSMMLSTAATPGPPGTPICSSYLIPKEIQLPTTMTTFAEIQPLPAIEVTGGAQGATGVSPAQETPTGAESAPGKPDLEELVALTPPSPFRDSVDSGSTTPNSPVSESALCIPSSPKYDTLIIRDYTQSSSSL
Chain of UniProt P14867 (whole entry, looked up): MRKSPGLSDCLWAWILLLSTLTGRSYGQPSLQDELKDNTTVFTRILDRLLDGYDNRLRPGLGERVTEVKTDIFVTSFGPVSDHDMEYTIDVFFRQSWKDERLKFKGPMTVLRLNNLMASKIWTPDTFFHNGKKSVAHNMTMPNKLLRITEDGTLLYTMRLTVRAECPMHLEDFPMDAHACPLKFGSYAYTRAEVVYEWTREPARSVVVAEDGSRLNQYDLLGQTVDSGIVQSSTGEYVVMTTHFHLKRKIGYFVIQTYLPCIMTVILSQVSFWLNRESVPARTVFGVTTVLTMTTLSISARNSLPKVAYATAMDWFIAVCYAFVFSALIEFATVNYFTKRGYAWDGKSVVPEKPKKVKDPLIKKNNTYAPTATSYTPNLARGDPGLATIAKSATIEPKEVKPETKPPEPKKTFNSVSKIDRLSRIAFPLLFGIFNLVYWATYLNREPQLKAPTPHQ
Chain of UniProt P18507 (whole entry, looked up): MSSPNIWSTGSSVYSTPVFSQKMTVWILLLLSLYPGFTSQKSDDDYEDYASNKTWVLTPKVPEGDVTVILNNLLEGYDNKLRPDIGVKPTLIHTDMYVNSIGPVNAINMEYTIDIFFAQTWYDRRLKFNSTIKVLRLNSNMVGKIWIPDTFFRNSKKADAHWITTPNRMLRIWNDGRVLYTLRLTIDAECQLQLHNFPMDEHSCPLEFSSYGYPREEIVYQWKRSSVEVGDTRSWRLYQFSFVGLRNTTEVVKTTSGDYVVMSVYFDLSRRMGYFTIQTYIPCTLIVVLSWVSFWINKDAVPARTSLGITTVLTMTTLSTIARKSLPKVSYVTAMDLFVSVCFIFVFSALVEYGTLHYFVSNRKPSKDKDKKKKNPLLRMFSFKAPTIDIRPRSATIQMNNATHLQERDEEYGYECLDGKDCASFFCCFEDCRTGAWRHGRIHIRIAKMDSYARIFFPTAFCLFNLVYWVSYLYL
Chain of UniProt P47870 (whole entry, looked up): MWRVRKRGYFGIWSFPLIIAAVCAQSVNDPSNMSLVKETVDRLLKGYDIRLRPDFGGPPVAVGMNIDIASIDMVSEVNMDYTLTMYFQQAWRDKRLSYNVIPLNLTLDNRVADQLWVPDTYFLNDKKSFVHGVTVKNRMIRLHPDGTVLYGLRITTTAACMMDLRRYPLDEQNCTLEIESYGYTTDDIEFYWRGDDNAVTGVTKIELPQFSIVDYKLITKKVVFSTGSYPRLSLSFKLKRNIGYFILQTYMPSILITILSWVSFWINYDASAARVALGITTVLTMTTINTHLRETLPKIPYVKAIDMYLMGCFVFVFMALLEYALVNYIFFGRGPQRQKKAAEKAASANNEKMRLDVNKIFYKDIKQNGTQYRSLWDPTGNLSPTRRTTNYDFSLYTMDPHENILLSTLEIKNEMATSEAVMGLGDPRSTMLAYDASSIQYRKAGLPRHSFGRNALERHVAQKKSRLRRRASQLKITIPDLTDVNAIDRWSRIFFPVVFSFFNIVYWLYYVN
Chain of UniProt P14416 (whole entry, looked up): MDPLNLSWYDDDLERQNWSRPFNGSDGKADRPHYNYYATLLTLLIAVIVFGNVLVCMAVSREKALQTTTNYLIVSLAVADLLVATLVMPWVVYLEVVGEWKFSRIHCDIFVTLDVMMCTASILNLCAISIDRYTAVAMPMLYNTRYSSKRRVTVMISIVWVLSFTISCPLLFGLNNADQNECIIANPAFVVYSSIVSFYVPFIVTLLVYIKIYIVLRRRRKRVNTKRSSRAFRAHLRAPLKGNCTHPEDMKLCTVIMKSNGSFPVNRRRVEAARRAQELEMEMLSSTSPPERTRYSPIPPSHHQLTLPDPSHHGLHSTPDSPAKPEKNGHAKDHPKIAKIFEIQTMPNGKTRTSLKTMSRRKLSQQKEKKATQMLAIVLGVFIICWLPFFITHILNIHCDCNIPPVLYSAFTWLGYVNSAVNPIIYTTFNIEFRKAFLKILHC

COC1=Cc2ccnc3ccnc(c23)C1=O — EC50 (OPRD1 (Homo sapiens, UniProt P41143); calcium signal, agonist): 2300 nM
CCCCC/C=C\C/C=C\C/C=C\C/C=C\CCCC(=O)NCCc1c[nH]c2ccc(O)cc12 — EC50 (Sterol carrier protein 2 (Homo sapiens, UniProt P22307); NBDS displacement, fluorescent probe displacement; 50% of maximum displacement, with: NBDS 500 nM): 3330 ± 50 nM
N[C@@H](CCC(=O)O)C(=O)O — EC50 (Grm3 (Rattus norvegicus, UniProt P31422); ion flux, agonist): 565 nM
O=C1Nc2cc(Cl)c(Cl)cc2N2CCNCC12 (centres unmarked) — EC50 (HTR2C (Homo sapiens, UniProt P28335); calcium signal, agonist): 1.5 nM
CC[C@H](C)[C@H](NC(=O)[C@H](Cc1ccccc1)NC(=O)[C@H](CCC(=O)O)NC(=O)[C@H](CCCCN)NC(=O)[C@H](C)NC(=O)[C@H](C)NC(=O)[C@H](CCC(N)=O)NC(=O)CNC(=O)[C@H](CCC(=O)O)NC(=O)[C@H](CC(C)C)NC(=O)[C@H](Cc1ccc(O)cc1)NC(=O)[C@H](CO)NC(=O)[C@H](CO)NC(=O)[C@@H](NC(=O)[C@H](CC(=O)O)NC(=O)[C@H](CO)NC(=O)[C@@H](NC(=O)[C@H](Cc1ccccc1)NC(=O)[C@@H](NC(=O)CNC(=O)[C@H](CCC(=O)O)NC(=O)[C@H](C)NC(=O)N(N)Cc1c[nH]cn1)[C@@H](C)O)[C@@H](C)O)C(C)C)C(=O)N[C@@H](C)C(=O)N[C@@H](Cc1c[nH]c2ccccc12)C(=O)N[C@@H](CC(C)C)C(=O)N[C@H](C(=O)N[C@@H](CCCNC(=N)N)C(=O)NCC(=O)N[C@@H](CCCNC(=N)N)C(=O)NCC(=O)O)C(C)C — EC50 (GLP1R (Homo sapiens, UniProt P43220); reporter gene, agonist, luciferase): 0.3 to 0.7 nM
C=C1C(=O)N[C@@H](C)C(=O)N(C)[C@@H](C)C(=O)N[C@@H]([C@H](OC(=O)[C@@H](NC(=O)CC)[C@H](O)C(C)C)C(C)C)C(=O)N(C)[C@@H]([C@@H](C)OC)C(=O)O[C@H](C(C)C)[C@H](NC(C)=O)C(=O)O[C@H](Cc2ccccc2)C(=O)N1C — EC50 (Gnaq, with Gβ1γ2 (Mus musculus, UniProt P21279); Gβ1γ2–Gαq association, split-luciferase complementation; HEK293; 18 h, wild-type Gαq): 3 nM
CCCCCc1cc(O)c(C/C=C(\C)CCC=C(C)C)c(O)c1C(=O)O — EC50 (GABA-A receptor; alpha-1/beta-2/gamma-2 (Homo sapiens, UniProt P14867+P18507+P47870); potentiation of GABA-evoked current, positive allosteric modulator, two-electrode voltage clamp; Xenopus oocytes; with: GABA 15 µM): 813 nM
CNCCc1c[nH]c2ccc(OC)cc12 — EC50 (HTR2A; calcium signal, agonist): 3.78 nM
CN[C@@](C)(C[18F])C(=O)O — tracer uptake (A549 tumour model; host not given, liver; 15 min, tumour-bearing): 6.9 %ID/g
CC[C@H](C)[C@H](NC(=O)[C@H](Cc1c[nH]cn1)NC(=O)[C@@H](NC(=O)[C@H](CCC(N)=O)NC(=O)[C@H](CCCNC(=N)N)NC(=O)[C@@H](NC(=O)[C@@H](N)CCC(=O)O)[C@@H](C)CC)[C@@H](C)O)C(=O)N[C@@H](Cc1ccccc1)C(=O)N[C@@H](Cc1ccccc1)C(=O)N[C@@H](Cc1ccccc1)C(=O)N[C@@H](CC(N)=O)C(=O)N[C@@H](CC(C)C)C(=O)N[C@@H](Cc1ccccc1)C(=O)N[C@@H](CCCCN)C(=O)N[C@@H](CCCNC(=N)N)C(=O)N[C@@H](CCCNC(=N)N)C(=O)O — EC50 (histidine kinase ComD (Streptococcus pneumoniae serotype 4, UniProt A0A0H2US84); reporter gene, agonist; Streptococcus pneumoniae, TIGR4 comX::lacZ; 30 min, pH 7.3, 37 °C): > 10000 nM
CCCN(CCC)CCc1c[nH]c2ccc(OC)cc12 — EC50 (HTR2A; calcium signal, agonist): 6 nM
CNc1nc2cc(OCCCCN3CCN(c4cccc(Cl)c4Cl)CC3)ccc2s1 — EC50 (DRD2 (Homo sapiens, UniProt P14416); cAMP, agonist, luciferase): 24 nM
CC(C)NCCc1c[nH]c2ccccc12 — EC50 (HTR2A; calcium signal, agonist): 116 nM
O=C(c1ccc(F)cc1)N1CCc2nc(COc3ccccc3)oc2C1 — EC50 (Grm5 (Rattus norvegicus, UniProt P31424); calcium signal, positive allosteric modulator): 235 nM
CC(C)N(C)CCc1c[nH]c2ccccc12 — EC50 (HTR2A; calcium signal, agonist): 44.9 nM
C[C@@H]1CN(c2c(F)c(F)c3c(=O)c(C(=O)O)cn(C4CC4)c3c2F)C[C@H](C)N1 — EC50 (Androgen receptor (AR, Homo sapiens, UniProt P10275); human cells; concentration not given): 26000 nM
CC[C@H](C)[C@H](NC(=O)[C@H](CCCNC(=N)N)NC(=O)[C@H](CCSC)NC(=O)[C@@H](N)CCC(=O)O)C(=O)N[C@@H](CO)C(=O)N[C@@H](CCCNC(=N)N)C(=O)N[C@H](C(=O)N[C@H](C(=O)N[C@@H](CCCNC(=N)N)C(=O)N[C@@H](CC(=O)O)C(=O)N[C@@H](Cc1ccccc1)C(=O)N[C@@H](CC(C)C)C(=O)N[C@@H](CC(C)C)C(=O)N[C@@H](CC(C)C)C(=O)N[C@@H](CCCNC(=N)N)C(=O)O)[C@@H](C)CC)[C@@H](C)CC — EC50 (histidine kinase ComD (Streptococcus pneumoniae serotype 2, UniProt A0A0H2ZM50); Streptococcus pneumoniae): > 1000 nM
CCCN(C/C=C/I)C1CCc2ccc(O)cc2C1 (centres unmarked) — EC50 (ADRA2C (Homo sapiens, UniProt P18825); G protein activation, agonist, BRET, refers to: Gαi1; HEK293T, transfected; Emax below 50%): 11 ± 4 nM
CC[C@H](C)[C@H](NC(=O)[C@H](Cc1ccccc1)NC(=O)[C@H](CCCNC(=N)N)NC(=O)[C@H](CO)NC(=O)[C@@H](NC(=O)[C@H](CCCNC(=N)N)NC(=O)[C@H](CCSC)NC(=O)[C@@H](N)CCC(=O)O)[C@@H](C)CC)C(=O)N[C@@H](CC(C)C)C(=O)N[C@@H](CC(=O)O)C(=O)N[C@@H](Cc1ccccc1)C(=O)N[C@@H](CC(C)C)C(=O)N[C@@H](CC(C)C)C(=O)N[C@@H](CC(C)C)C(=O)N[C@@H](CCCNC(=N)N)C(=O)O — EC50 (histidine kinase ComD (Streptococcus pneumoniae serotype 2, UniProt A0A0H2ZM50); Streptococcus pneumoniae): > 1000 nM
CC[C@H](C)[C@@H]1NC(=O)[C@H](CCCNC(=N)N)NC(=O)[C@H](CC(=O)O)NC(=O)[C@H](CC(C)C)NC(=O)[C@H](CCCCN)NC(=O)[C@H](CC(C)C)NC(=O)CNC(=O)[C@H](Cc2ccccc2)NC(=O)[C@@H](NC(=O)CNC(=O)[C@H](CCCCN)NC(=O)[C@H](CO)NC(=O)[C@H](CC(C)C)NC(=O)CNC(=O)[C@H](CCCCN)NC(=O)[C@H](CCCCN)NC(=O)[C@H](CC(N)=O)NC(=O)[C@H](C)NC(=O)CNC(=O)[C@H](CCCCN)NC(=O)[C@H](Cc2ccc(O)cc2)NC(=O)[C@H](CCCCN)NC(=O)[C@H](CCCNC(=N)N)NC(=O)[C@H](C)NC(=O)[C@H](CC(N)=O)NC(=O)[C@@H]2CCCN2C(=O)[C@H](Cc2c[nH]cn2)NC(=O)[C@H](CCC(=O)O)NC(=O)[C@H](CCC(N)=O)NC(=O)CNC(=O)[C@@H]2CCCN2)CSSC[C@@H](C(=O)O)NC(=O)CNC(=O)[C@H](CC(C)C)NC(=O)CNC(=O)[C@H](CO)NC(=O)[C@H](CCSC)NC(=O)[C@H](CO)NC(=O)CNC1=O — EC50 (NPR-B; urine cGMP/creatinine, sigmoid Emax model on Cmax; human; first 6 months): 4.79 ng/mL

Some of these lines once more:
C=C1C(=O)N[C@@H](C)C(=O)N(C)[C@@H](C)C(=O)N[C@@H]([C@H](OC(=O)[C@@H](NC(=O)CC)[C@H](O)C(C)C)C(C)C)C(=O)N(C)[C@@H]([C@@H](C)OC)C(=O)O[C@H](C(C)C)[C@H](NC(C)=O)C(=O)O[C@H](Cc2ccccc2)C(=O)N1C — EC50 (Gnaq, with Gβ1γ2 (Mus musculus, UniProt P21279); Gβ1γ2–Gαq association, split-luciferase complementation; HEK293; 18 h, wild-type Gαq): 3 nM
